Measured values collected from several papers.
Each line is one published result; not all experiments were run side by side. ± gives the spread as reported.
Cell line: SH-SY5Y

For `O=C(O[C@@H]1COC(=O)c2cc(O)c(O)c(O)c2-c2c(cc(O)c(O)c2O)C(=O)O[C@H]1[C@@H]1OC(=O)c2cc(O)c(O)c(O)c2-c2c(O)c(O)c(O)c3c2C(=O)O[C@H]1[C@@H]3O)c1cc(O)c(O)c(O)c1`, the viability was 99.1 ± 1.43% (neuroprotection, MTT; 106.7 µM, 24 h, together with: H2O2 100 µM).
For `C=CC1=C(C)c2cc3[n-]c(cc4nc(cc5[n-]c(cc1n2)c(C)c5C=C)C(C)=C4CCC(=O)O)c(CCC(=O)O)c3C.[Zn+2]`, the fold change was 2.01 (RNA-seq, item: CREB5 mRNA; 5 µM, 5 h; relative to: untreated cells).
With `CN(C)CCCC1(c2ccc(F)cc2)OCc2cc(C#N)ccc21` (stereo not shown) the EC10 was 6.55 µM (neurite outgrowth inhibition, phase-contrast imaging; freely dissolved concentration).
For `CCCCCCCCCC(=O)Oc1c(C)c(O)c(C(=O)/C=C/c2ccccc2)c(OC)c1C`, the selectivity index was 1.69 (SRB; relative to: normal over SH-SY5Y IC50).
`Cc1c(C)c2c(c(C)c1O)CCC(C)(C(=O)O)O2` (stereo not shown) gave an inhibition of ~43% (intracellular ROS, DCFH-DA; 20 µM, 24 h pretreatment, together with: TBHP 100 µM; relative to: TBHP alone).
With `COc1c(C)c(OC(=O)c2ccc(C)cc2)c(C)c(O)c1C(=O)/C=C/c1ccccc1` the selectivity index was 1.63 (SRB; relative to: normal over SH-SY5Y IC50).
For `Cn1c(Nc2nc3ccc(C(F)(F)F)cc3s2)nc2cc(C(=O)NCCOCCO)ccc21`, the fold change was 2.39 (RNA-seq, item: RGS3 mRNA; 5 µM, 5 h; relative to: untreated cells).
For `CN1CCc2cccc3c2[C@H]1Cc1ccc(O)c(O)c1-3`, the EC50 was 3.2 µM (cytoprotection, FDA/PI staining; together with: 0.8 µM p-tau).
`COc1c(C)c(OCc2ccccc2)c(C)c(O)c1C(=O)/C=C/c1ccccc1` gave a selectivity index of 1.37 (SRB; relative to: normal over SH-SY5Y IC50).
The fold change of `C=Cc1c2[n-]c(c1C)/C=c1\[n-]/c(c(C)c1C=C)=C\c1[n-]c(c(CCC(=O)O)c1C)/C=c1\[n-]c(c(C)c1CCC(=O)O)=C2.[Sn+4]` is reported as 2.4 (RNA-seq, item: EVA1A mRNA; 5 µM, 5 h; relative to: untreated cells).

A few entries again:
For `CN1CCc2cccc3c2[C@H]1Cc1ccc(O)c(O)c1-3`, the EC50 was 3.2 µM (cytoprotection, FDA/PI staining; together with: 0.8 µM p-tau).
